Published values gathered from unrelated publications.
Each numbered part is a random draw from the data of one study; scales do not carry over between parts. Substitutions count along the parent as printed.
Chain of UniProt Q8NG66 (whole entry, looked up): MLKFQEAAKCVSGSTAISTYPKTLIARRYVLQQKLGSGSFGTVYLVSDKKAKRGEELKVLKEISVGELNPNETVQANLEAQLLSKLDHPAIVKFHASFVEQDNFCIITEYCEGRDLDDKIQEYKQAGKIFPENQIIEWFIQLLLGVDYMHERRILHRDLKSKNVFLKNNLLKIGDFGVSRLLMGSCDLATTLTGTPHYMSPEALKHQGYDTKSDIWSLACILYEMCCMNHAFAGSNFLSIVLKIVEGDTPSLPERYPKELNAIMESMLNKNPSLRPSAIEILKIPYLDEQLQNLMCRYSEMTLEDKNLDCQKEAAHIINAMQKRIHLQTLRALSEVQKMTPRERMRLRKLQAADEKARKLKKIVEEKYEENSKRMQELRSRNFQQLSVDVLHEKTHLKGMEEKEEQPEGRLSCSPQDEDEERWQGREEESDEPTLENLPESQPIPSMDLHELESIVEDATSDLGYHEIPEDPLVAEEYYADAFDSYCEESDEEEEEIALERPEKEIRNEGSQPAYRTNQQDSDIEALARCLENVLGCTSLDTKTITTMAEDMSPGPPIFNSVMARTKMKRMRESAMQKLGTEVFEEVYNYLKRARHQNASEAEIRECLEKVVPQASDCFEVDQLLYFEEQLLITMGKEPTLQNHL

Series 1 — method: universal PBM; form: double-stranded DNA, one strand shown; sample: in vitro; concentration: not given; reading: higher = stronger binding; quantity: E-score
Target: Sal-like protein 4, full length isoform B (SALL4, Homo sapiens, UniProt Q9UJQ4-2, residues 1-616)
Notes: 8-mer, flanks averaged, mean of replicates
CCAGGTGC: -0.224
AAGCGAAA: 0.0848
TCCCCGCA: -0.234
AGAGCACG: -0.176
AATCATAG: 0.27
GTCACATA: 0.244
ATCCTTTA: 0.183
ATGGCACG: -0.122

Series 2 — target: CREBRF, bZIP domain (human); method: DHFR protein complementation; sample: yeast; reference: wild-type JUN-FOS pair; reading: higher = stronger binding; quantity: binding fitness
Notes: single substitutions, most at no-binding floor
Parent: JUN, bZIP domain (human); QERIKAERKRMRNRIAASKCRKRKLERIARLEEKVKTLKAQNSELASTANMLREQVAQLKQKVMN; partner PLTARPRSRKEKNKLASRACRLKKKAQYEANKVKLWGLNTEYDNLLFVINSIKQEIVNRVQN
V56T: -1.35 natural log
A46Q: -1.49 natural log
E44M: -1.48 natural log
N42A: -1.42 natural log
R30E: -1.25 natural log
E44F: -1.5 natural log
I28D: -1.55 natural log
A46G: -1.46 natural log

Series 3 — method: RNAcompete; form: RNA; sample: in vitro; concentration: 20 nM; notes: 7-mer, probes averaged, single round; reference: mean of 7-mers; reading: higher = stronger binding; quantity: 7-mer Z-score
Target: PABPC1L2, full length, GST fusion (mouse, UniProt A0ABA7IW68)
Target sequence (chain): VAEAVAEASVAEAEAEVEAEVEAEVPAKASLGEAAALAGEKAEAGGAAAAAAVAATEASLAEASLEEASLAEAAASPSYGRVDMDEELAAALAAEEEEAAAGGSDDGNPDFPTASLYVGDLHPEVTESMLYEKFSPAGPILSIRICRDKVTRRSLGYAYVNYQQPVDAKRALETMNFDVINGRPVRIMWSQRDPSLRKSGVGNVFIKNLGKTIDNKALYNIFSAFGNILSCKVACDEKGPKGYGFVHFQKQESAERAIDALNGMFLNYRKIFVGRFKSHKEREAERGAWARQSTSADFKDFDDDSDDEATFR
GCACAUC: -0.155
AGGCGAG: 0.321
AAAAGUC: 4.01
GCACCAU: -0.0355
AAUCCUC: -0.257
CCAUACC: -0.257
AAGGCGA: 0.452
CAUGAGA: 0.0406

Single results of other studies
Cc1nc2cc3nc(-c4cccs4)cnc3cc2n1C  remaining activity (Serine/threonine-protein kinase Nek11 (NEK11, Homo sapiens, UniProt Q8NG66); enzyme activity, inhibitor; 0.5 µM; reference: control): 93.1%

Some of these lines once more (series 2):
V56T: -1.35 natural log
A46Q: -1.49 natural log
